Measured values collected from several papers.
A part holds a random share of what one study measured. Changes are numbered by the printed parent chain.
Sequence of UniProt P54764 (whole entry, looked up): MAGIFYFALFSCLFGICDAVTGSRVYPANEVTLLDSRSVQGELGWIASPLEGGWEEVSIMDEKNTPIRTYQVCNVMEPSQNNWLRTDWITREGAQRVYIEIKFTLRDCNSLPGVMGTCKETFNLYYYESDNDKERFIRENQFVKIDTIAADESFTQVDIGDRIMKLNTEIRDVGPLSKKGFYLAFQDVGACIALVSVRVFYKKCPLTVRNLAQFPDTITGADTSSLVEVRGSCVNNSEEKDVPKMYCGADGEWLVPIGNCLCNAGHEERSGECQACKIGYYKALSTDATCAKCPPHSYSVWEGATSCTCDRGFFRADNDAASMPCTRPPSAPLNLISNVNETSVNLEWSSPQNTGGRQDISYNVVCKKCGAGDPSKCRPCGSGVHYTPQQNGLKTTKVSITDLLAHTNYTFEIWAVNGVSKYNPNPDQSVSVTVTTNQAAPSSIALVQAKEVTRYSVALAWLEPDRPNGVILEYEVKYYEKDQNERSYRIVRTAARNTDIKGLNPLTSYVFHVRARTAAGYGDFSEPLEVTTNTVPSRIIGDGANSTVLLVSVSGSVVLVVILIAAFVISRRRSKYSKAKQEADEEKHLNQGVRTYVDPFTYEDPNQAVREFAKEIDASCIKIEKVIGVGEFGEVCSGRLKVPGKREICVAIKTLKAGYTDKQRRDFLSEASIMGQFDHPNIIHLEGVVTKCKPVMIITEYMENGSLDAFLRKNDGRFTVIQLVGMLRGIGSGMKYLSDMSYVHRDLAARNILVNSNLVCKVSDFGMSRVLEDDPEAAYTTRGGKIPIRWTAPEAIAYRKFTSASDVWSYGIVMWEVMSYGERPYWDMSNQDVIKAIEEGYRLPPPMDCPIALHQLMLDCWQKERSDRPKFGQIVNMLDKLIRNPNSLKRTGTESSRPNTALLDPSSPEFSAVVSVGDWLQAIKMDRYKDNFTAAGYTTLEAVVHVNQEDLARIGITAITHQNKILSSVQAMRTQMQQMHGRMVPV
Sequence of UniProt Q9UPE1 (whole entry, looked up): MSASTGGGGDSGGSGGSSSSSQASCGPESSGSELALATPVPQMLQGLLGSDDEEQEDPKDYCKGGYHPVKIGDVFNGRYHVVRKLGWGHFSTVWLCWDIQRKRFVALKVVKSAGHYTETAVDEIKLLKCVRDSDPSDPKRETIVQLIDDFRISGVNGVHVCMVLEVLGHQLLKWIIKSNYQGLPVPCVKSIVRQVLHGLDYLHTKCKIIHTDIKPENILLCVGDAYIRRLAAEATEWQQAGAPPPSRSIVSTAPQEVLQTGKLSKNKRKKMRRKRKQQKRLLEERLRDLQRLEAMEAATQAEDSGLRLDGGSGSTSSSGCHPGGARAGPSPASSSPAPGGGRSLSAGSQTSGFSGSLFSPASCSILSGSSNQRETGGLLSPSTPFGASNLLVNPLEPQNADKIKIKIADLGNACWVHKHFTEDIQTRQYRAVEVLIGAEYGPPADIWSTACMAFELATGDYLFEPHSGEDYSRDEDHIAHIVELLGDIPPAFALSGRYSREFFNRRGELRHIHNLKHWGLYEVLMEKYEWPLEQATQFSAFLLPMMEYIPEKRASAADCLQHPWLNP
Sequence of UniProt Q8IY84 (whole entry, looked up): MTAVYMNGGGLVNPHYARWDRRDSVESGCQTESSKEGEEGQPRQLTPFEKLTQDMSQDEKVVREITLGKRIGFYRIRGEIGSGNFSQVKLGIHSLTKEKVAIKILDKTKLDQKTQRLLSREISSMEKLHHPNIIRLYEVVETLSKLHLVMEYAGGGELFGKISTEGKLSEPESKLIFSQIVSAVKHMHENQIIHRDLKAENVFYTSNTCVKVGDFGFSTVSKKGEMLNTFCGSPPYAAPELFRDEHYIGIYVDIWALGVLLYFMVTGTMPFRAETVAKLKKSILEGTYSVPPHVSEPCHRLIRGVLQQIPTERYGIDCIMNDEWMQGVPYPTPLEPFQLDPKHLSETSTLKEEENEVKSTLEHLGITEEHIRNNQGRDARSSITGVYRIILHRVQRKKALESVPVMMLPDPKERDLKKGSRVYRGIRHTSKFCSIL
Sequence of UniProt Q9H3Y6 (whole entry, looked up): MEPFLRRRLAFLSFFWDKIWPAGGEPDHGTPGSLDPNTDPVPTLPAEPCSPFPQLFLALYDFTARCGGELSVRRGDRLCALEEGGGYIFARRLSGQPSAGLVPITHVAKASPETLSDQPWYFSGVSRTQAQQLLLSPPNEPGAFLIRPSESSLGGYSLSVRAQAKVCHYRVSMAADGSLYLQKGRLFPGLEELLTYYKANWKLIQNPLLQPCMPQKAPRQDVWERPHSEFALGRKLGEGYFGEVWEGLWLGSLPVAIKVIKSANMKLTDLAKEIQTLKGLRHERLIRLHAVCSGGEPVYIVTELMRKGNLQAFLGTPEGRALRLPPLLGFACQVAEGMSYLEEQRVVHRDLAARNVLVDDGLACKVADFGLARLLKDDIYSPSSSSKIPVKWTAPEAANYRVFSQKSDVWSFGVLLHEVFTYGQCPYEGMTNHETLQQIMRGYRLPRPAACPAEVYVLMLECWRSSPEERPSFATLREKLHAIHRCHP
Sequence of UniProt Q9H0K1 (whole entry, looked up): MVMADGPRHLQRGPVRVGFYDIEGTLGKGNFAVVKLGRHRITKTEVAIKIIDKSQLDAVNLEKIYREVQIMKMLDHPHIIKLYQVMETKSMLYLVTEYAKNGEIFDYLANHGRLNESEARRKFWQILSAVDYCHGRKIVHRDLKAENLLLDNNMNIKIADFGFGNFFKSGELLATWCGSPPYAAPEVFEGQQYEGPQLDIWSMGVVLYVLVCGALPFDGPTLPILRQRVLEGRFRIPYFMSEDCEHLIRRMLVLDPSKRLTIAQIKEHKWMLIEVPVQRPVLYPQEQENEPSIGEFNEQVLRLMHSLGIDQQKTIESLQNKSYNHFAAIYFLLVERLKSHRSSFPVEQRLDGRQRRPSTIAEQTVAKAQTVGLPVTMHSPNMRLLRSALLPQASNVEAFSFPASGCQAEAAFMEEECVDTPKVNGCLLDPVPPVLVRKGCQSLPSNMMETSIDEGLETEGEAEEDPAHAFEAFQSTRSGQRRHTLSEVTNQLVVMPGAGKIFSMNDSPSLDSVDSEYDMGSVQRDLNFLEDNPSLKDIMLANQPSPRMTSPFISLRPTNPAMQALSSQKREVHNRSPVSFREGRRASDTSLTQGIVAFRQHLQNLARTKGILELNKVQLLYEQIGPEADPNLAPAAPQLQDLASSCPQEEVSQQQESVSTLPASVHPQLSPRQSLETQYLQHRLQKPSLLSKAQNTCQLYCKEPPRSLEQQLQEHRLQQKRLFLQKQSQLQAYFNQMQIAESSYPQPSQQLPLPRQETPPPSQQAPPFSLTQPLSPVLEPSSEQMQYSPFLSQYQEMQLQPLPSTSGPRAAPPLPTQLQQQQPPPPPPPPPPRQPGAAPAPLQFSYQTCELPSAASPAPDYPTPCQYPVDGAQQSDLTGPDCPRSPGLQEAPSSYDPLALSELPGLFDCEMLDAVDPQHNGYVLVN
Sequence of UniProt Q8IVH8 (whole entry, looked up): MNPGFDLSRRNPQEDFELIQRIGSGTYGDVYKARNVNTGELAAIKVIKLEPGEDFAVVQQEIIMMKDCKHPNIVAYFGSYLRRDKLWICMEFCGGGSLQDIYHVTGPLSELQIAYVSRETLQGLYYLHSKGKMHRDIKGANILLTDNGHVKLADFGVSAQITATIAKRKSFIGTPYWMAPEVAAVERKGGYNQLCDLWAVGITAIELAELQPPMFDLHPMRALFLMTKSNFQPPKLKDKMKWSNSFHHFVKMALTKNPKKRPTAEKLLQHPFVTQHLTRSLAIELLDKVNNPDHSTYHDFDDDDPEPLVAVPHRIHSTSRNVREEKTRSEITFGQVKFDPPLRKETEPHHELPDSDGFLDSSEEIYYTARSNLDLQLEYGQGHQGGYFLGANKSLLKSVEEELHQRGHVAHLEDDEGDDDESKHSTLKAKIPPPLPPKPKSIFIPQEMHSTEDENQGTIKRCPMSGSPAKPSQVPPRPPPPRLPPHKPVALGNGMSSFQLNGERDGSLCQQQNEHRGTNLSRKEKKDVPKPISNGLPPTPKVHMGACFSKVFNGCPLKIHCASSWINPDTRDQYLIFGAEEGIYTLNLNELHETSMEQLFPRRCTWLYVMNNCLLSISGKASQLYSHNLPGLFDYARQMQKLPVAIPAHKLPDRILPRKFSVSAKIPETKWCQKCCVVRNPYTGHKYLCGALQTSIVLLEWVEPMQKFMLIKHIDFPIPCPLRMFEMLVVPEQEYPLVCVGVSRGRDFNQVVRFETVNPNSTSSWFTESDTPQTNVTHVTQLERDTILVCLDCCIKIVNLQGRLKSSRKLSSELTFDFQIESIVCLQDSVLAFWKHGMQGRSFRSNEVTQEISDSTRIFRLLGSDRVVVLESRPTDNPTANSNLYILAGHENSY
Sequence of UniProt P19784 (whole entry, looked up): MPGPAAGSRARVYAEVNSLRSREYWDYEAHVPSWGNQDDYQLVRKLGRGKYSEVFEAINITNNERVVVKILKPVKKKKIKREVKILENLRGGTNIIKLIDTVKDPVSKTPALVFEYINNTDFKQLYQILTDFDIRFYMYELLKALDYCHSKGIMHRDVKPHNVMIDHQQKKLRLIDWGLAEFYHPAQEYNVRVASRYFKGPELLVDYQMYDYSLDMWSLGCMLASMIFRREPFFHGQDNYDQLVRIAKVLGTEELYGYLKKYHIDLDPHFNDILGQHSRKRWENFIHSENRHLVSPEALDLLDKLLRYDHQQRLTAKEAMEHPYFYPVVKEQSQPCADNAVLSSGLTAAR

Series 1
Compound: Cc1c[nH]c2nccc(Oc3c(F)cc(Nc4cc(Cl)nc(N)n4)cc3F)c12
Read-out: cell-free assay
Method: competition with immobilised ligand
Tested at: 0.1 µM
target	remaining binding
Calcium/calmodulin-dependent protein kinase type II subunit delta (CAMK2D, Homo sapiens, UniProt Q13557)	90%
Bone morphogenetic protein receptor type-1B (BMPR1B, Homo sapiens, UniProt O00238)	68%
SRSF protein kinase 3 (SRPK3, Homo sapiens, UniProt Q9UPE1)	100%
Serine/threonine-protein kinase NIM1 (NIM1K, Homo sapiens, UniProt Q8IY84)	75%
Proto-oncogene tyrosine-protein kinase receptor Ret (RET, Homo sapiens, UniProt P07949, V804L)	100%
Mitogen-activated protein kinase kinase kinase kinase 3 (MAP4K3, Homo sapiens, UniProt Q8IVH8)	91%
Ribosomal protein S6 kinase alpha-2, N-terminal kinase domain (RPS6KA2, Homo sapiens, UniProt Q15349)	82%
Casein kinase II subunit alpha' (CSNK2A2, Homo sapiens, UniProt P19784)	86%
Rho-associated protein kinase 2 (ROCK2, Homo sapiens, UniProt O75116)	0.9%
Serine/threonine-protein kinase SIK2 (SIK2, Homo sapiens, UniProt Q9H0K1)	100%
Serine/threonine-protein kinase MARK1 (MARK1, Homo sapiens, UniProt Q9P0L2)	82%
Mitogen-activated protein kinase kinase kinase 10 (MAP3K10, Homo sapiens, UniProt Q02779)	100%
NUAK family SNF1-like kinase 1 (NUAK1, Homo sapiens, UniProt O60285)	91%

Series 2
Target: RING finger protein unkempt homolog, zinc fingers 1-6, GST-SBP tag (UNK, Homo sapiens, UniProt Q9C0B0, residues 30-357)
Sequence of UniProt Q9C0B0 (30-357, looked up): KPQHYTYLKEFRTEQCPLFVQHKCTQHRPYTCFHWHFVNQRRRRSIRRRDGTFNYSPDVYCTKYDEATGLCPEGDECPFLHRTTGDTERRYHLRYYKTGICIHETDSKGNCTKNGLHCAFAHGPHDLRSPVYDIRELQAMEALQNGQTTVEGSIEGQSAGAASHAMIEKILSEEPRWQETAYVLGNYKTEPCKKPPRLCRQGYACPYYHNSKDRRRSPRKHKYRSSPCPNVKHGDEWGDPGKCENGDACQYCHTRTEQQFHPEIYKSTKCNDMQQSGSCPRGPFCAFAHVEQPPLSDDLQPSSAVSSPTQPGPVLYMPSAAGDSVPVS
Method: RNA Bind-n-Seq
Molecule type: RNA
Sample: in vitro
Tested at: not given
Setting: RNA with constant flanks, ends assumed
Reference: input RNA pool
Reading: higher = stronger binding
Constant ends, left off below: GGGAGUUCUACAGUCCGACGAUC … CAACAGAGGAUUGAGCAUCA
Sequence	bound/input enrichment [ratio]
CUGGAGAGAAUAAAGAGCAGUCGCAAAUGAAGCUGCCCCACUCCCCCGGCACCCUGCAGCUUCCGUUUACUAAACUAGAAGUCCUCAUAGUUUAAAAUGGCCUCAGCAGGCCUAGUGUAU	4.51
AGAAGGAAGCGAGCCCGGCAGAUCAAUGUUUCCACAGAUGACUCAGAGGUCAAAGCUUGCCUCCGAGCCUUGGGGGAACCCAUCACACUUUUUGGAGAGGGUCCUGCUGAAAGAAGAGAA	0.285
UUAGCUAAACAUCCAUGUAAUGCCUCAAUGGAAUGUGACAAGUGUCAGAGGCGGCAGAAGAACCGAGCAUUUUGCUACUUUUGUAAUUCUGUACAGAAGUUACCAAUUUGUGCACAGUGU	0.343
UCCUUCCCACAUCACAGGGCUACCUUGAGACUCUCCGAGAAGUUUAUCCUUCUCCUCAUCCUCCGUGCCUUCAUCACCCUGUGUUUUGGGGCAUUCUUCUUCCUUCCAGACUCUUCAAAA	0.321
CAAGCAGCUCUUGAAUUUCAUGGUGUUGCCCAAGAUUUGUCUCAGCAGUUGGAUGGCUUAUCCGGGAUGUUGUGCGUAGAUGUAGCACCAGCUGAUGGAGCAUCGAUUCAGCAAACUUUA	0.166
GAUUCACUCCCUCUGGUUGAUACCCACUCAAAAAGGACACUUCUGAUUAAGACGGUUGAAACCCGAGAUGGACAGGUUAUCAACGAAACUUCUCAGCAUCACGAUGACCUUGAAUAAAAA	0.145
UUUUACAAGGGGGACAAAGACAAUAAGUAUGUUCCCUACUCGGAGAGCUUCAGCCAAGUUUCCGAGGAAACUUACAUGCUUGCUGUAACUUUGGAUGAAUGGAAAAAGAAACUGGAAUCU	0.213
CGCCUGAUGGAAAGCCACGGCUUUGAGGAGUACAUGAAAGAGCUAGGAGUAGGACUGGCUCUCCGGAAGAUGGCUGCCAUGGCCAAGCCAGACUGUAUCAUUACGUGUGAUGGCAACAAC	0.183

Series 3
SMILES: CN(C)CCCn1cc(C2=C(c3c[nH]c4ccccc34)C(=O)NC2=O)c2ccccc21
Read-out: enzyme activity
Mode: inhibitor
Tested at: 0.5 µM
Reference: control
target	remaining activity
Serine/threonine-protein kinase 16 (STK16, Homo sapiens, UniProt O75716)	80.8%
Ephrin type-A receptor 4 (EPHA4, Homo sapiens, UniProt P54764)	88.2%
Serine/threonine-protein kinase WNK3 (WNK3, Homo sapiens, UniProt Q9BYP7)	98.4%
Homeodomain-interacting protein kinase 4 (HIPK4, Homo sapiens, UniProt Q8NE63)	113%
Tyrosine-protein kinase Srms (SRMS, Homo sapiens, UniProt Q9H3Y6)	104%

Series 4
Variant: L91G
Target: ABI1, truncated, D143A, DHFR fusion (Arabidopsis thaliana)
Method: DHFR PCA, deep sequencing
Sample: yeast
Setting: methotrexate growth selection, single substitutions
Reference: wild-type fitted maximum
Reading: higher = stronger binding
Starting sequence: PYL1, truncated, DHFR fusion (Arabidopsis thaliana); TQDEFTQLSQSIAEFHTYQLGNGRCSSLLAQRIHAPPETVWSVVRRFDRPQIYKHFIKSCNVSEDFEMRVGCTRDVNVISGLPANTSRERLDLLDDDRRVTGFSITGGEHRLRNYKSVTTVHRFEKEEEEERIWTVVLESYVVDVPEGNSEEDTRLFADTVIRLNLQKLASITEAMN; partner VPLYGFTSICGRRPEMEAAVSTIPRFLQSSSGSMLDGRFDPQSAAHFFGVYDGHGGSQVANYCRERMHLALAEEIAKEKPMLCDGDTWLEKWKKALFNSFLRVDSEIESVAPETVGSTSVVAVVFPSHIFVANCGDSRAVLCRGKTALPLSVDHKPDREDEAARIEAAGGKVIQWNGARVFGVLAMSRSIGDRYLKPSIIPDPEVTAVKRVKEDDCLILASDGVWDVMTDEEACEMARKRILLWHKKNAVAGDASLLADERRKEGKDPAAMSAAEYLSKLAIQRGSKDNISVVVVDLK
setting	relative binding score
together with: (+)-ABA 200 µM	3.2%
together with: (+)-ABA 0.0091 µM	2.83%
together with: (+)-ABA 0.39 µM	1.99%
together with: (+)-ABA 2500 µM	-1.36%
together with: (+)-ABA 1.4 µM	-4.03%
together with: (+)-ABA 58 µM	-2.54%

A few entries again (series 2):
Sequence	bound/input enrichment [ratio]
GAUUCACUCCCUCUGGUUGAUACCCACUCAAAAAGGACACUUCUGAUUAAGACGGUUGAAACCCGAGAUGGACAGGUUAUCAACGAAACUUCUCAGCAUCACGAUGACCUUGAAUAAAAA	0.145
UUUUACAAGGGGGACAAAGACAAUAAGUAUGUUCCCUACUCGGAGAGCUUCAGCCAAGUUUCCGAGGAAACUUACAUGCUUGCUGUAACUUUGGAUGAAUGGAAAAAGAAACUGGAAUCU	0.213
CAAGCAGCUCUUGAAUUUCAUGGUGUUGCCCAAGAUUUGUCUCAGCAGUUGGAUGGCUUAUCCGGGAUGUUGUGCGUAGAUGUAGCACCAGCUGAUGGAGCAUCGAUUCAGCAAACUUUA	0.166
CUGGAGAGAAUAAAGAGCAGUCGCAAAUGAAGCUGCCCCACUCCCCCGGCACCCUGCAGCUUCCGUUUACUAAACUAGAAGUCCUCAUAGUUUAAAAUGGCCUCAGCAGGCCUAGUGUAU	4.51
CGCCUGAUGGAAAGCCACGGCUUUGAGGAGUACAUGAAAGAGCUAGGAGUAGGACUGGCUCUCCGGAAGAUGGCUGCCAUGGCCAAGCCAGACUGUAUCAUUACGUGUGAUGGCAACAAC	0.183
